Experimental data pooled from the literature.
Protocols differ between the studies behind these lines. Several values in a cell are separate wells, animals, samples, runs or records. Numbers after ± are the reported error.
TOP2A: DNA topoisomerase 2-alpha (TOP2A, Homo sapiens, UniProt P11388)
Cereblon/Ikaros: Cereblon/Ikaros (Homo sapiens, UniProt Q13422+Q96SW2)
T1: DNA junction; chain CGCAATCCTGAGCACG; chain CGTGCTCACCGAATGC; chain GCATTCGGACTATGGC; chain GCCATAGTGGATTGCG

Compound = CC[n+]1c(-c2ccccc2)c2cc(N)ccc2c2ccc(N)cc21; target = T1, DNA junction; assay = fluorescence enhancement; conditions = 20 °C, Mg2+ 12.5 mM, ethidium displacement; endpoint = binding; result = binds
Compound = CC(=O)N[C@H](C(=O)N1C[C@H](O)C[C@H]1C(=O)NCc1ccc(-c2scnc2C)cc1)C(C)(C)SCCCCCCNC(=O)C[C@@H]1N=C(c2ccc(Cl)cc2)c2c(sc(C)c2C)-n2c(C)nnc21; target = BRD2/VHL, BD2; with VCB (Homo sapiens, UniProt P25440+P40337); assay = ternary complex binding, ITC; conditions = 25 °C, unit not given, together with: VHL-ElonginB-ElonginC, PROTAC:Brd2^BD2; scale = relative to: binary binding to VHL-ElonginB-ElonginC, positive = cooperative; endpoint = ΔpKd ternary minus binary; result = 0.61 ± 0.05
Compound = N#C/C(=C\c1ccc(O)c(O)c1)C(N)=S; target = Protein-glutamine gamma-glutamyltransferase (TGM2, Homo sapiens, UniProt P21980); assay = enzyme activity, inhibitor; conditions = concentration not given, together with: DTT; scale = relative to: without DTT over with DTT; endpoint = potency reduction; result = ~17 fold
Compound = Nc1ncnc2c1ncn2[C@@H]1O[C@H](COP(=O)(O)OP(=O)(O)OP(=O)(O)O)[C@@H](O)[C@H]1O; target = P2X purinoceptor 7 (P2rx7, Rattus norvegicus, UniProt Q64663); assay = ion current, agonist, two-electrode voltage clamp; test system = Xenopus laevis oocytes; conditions = 2 µM; scale = relative to: highest concentration response; endpoint = normalized current; result = 0
Compound = Cc1n[nH]c2ccc(-c3cc(OC[C@@H](N)Cc4ccccc4)cnc3-c3ccoc3)cc12; target = Mitogen-activated protein kinase MKC1 (MKC1, Candida albicans, UniProt P43068); assay = kinase binding, competitor, MIB/MS competition, refers to: MKC1; test system = Candida albicans cell lysate; conditions = 10 µM; scale = relative to: DMSO; endpoint = log2 fold change; result = -1.76
Compound = COc1cc(N2CCC(N3CCN(C)CC3)CC2)ccc1Nc1ncc(Cl)c(Nc2ccccc2P(C)(C)=O)n1; target = GID4/ALK (Homo sapiens, UniProt Q8IVV7+Q9UM73); assay = ternary complex formation; test system = HEK293T; conditions = 100 nM, 6 h; scale = relative to: normalised ratio; endpoint = NanoBRET ratio; result = 1.04 and 1 and 1.01
Compound = O=C1N[C@H](c2cncc(C#Cc3ccccc3)c2)[C@@H](c2ccccc2Cl)O1; target = Metabotropic glutamate receptor 5 (Mus musculus, UniProt Q3UVX5); assay = PET; test system = mouse, brain; conditions = oral, 7.5 mg/kg, 2 h; endpoint = receptor occupancy; result = 98%
Compound = CCOc1cccc(C2CC(=O)Nc3c2c(C)nn3-c2ccc3nncn3n2)c1 (stereo not drawn); target = DNA damage-binding protein 1 (DDB1, Homo sapiens, UniProt Q16531); assay = binding, surface plasmon resonance; conditions = 0.938 µM; endpoint = SPR response; result = 1.66 RU
Compound = O=C(OC[C@H]1O[C@@H](OC(=O)c2cc(OS(=O)(=O)[O-])c(O)c(OS(=O)(=O)[O-])c2)[C@H](OC(=O)c2cc(OS(=O)(=O)[O-])c(O)c(OS(=O)(=O)[O-])c2)[C@@H](OC(=O)c2cc(OS(=O)(=O)[O-])c(O)c(OS(=O)(=O)[O-])c2)[C@@H]1OC(=O)c1cc(OS(=O)(=O)[O-])c(O)c(OS(=O)(=O)[O-])c1)c1cc(OS(=O)(=O)[O-])c(O)c(OS(=O)(=O)[O-])c1.[Na+].[Na+].[Na+].[Na+].[Na+].[Na+].[Na+].[Na+].[Na+].[Na+]; target = Neutrophil elastase (ELANE, Homo sapiens, UniProt P08246); assay = enzyme activity, inhibitor; conditions = together with: chromogenic substrate; endpoint = Hill slope; result = 0.9
Compound = Cc1c(COc2ccc(CN3CCCCC3C(=O)O)cc2Br)cccc1-c1ccccc1 (stereo not drawn); target = Programmed cell death 1 ligand 1 (Cd274, Mus musculus, UniProt Q9EP73); assay = western blot; test system = mouse B16-F10 tumour, tumour; conditions = intravenous, dose not given; scale = relative to: control; endpoint = protein level; result = 96% and 98% and 76%
Compound = O=c1nc(SCc2cc(F)cc(C(F)(F)F)c2)nc(SCc2ccc3ccccc3n2)[nH]1; target = TOP2A; assay = decatenation; conditions = 125 µM, replicate 2; endpoint = decatenated DNA; result = 0%
Compound = CC1(C)CC2(C)OC(=O)NC2(C)c2ccccc21 (stereo not drawn); target = DNA (cytosine-5)-methyltransferase 3A, PWWP domain (DNMT3A, Homo sapiens, UniProt Q9Y6K1); assay = binding, affinity selection mass spectrometry; scale = relative to: other proteins in batch; endpoint = fold enrichment; result = 0.69
Compound = O=C(CCCCc1ccc(CO)cc1)C(F)(F)C(F)(F)F; target = 85/88 kDa calcium-independent phospholipase A2 (PLA2G6, Homo sapiens, UniProt O60733); assay = PLA2 activity; scale = relative to: IC50 GIVA cPLA2 over IC50 PLA2G6; endpoint = selectivity ratio; result = ~192
Compound = CC(=C/C(=O)O)/C=C/C=C(\C)C1C=C2C(C)(C)CCCC2(C)O1 (stereo not drawn); target = Rhodopsin (RHO, Homo sapiens, UniProt P08100, T17M); assay = immunostaining, refers to: opsin; test system = COS-7 transfected; conditions = 50.00 µM, unit not given; scale = relative to: surface over total stained cells; endpoint = plasma membrane localization; result = 0.97
Compound = c1ccc(CCCOCCc2ccc3[nH]cnc3c2)cc1; target = ATP2A2 (Sus scrofa, UniProt P11607); assay = NADH-coupled; test system = microsomes; conditions = concentration not given; endpoint = ATPase activity; result = inactive
Compound = c1coc(-c2n[nH]cc2-c2ccnc3ccccc23)c1; target = Cell cycle protein kinase DBF2 (DBF2, Candida albicans, UniProt Q59KM8); assay = kinase binding, MIB/MS competition; test system = Candida albicans lysate; conditions = 1 µM; scale = relative to: DMSO, negative = stronger binding; endpoint = log2 fold change; result = -0.06
Compound = N#CCNC(=O)c1ccc(-c2ccnc(Nc3ccc(N4CCOCC4)cc3)n2)cc1; target = Serine/threonine-protein kinase N1 (PKN1, Homo sapiens, UniProt Q16512); assay = inhibitor; endpoint = Hill slope; result = -0.623
Compound = C=CC(=O)N1CCC[C@@H](n2nc(-c3ccc(Oc4ccccc4)cc3)c3c(N)ncnc32)C1; target = Tyrosine-protein kinase TXK (TXK, Homo sapiens, UniProt P42681); conditions = 10 µM; endpoint = remaining activity; result = 45.9%
Compound = O=C(O)c1ccc([N+](=O)[O-])cc1; target = Bestrophin-2a (BEST2, Homo sapiens, UniProt Q8NFU1); assay = whole-cell patch clamp; test system = HEK293 transiently expressing channel; conditions = concentration not given, membrane potential -80 mV; endpoint = current density; result = -91.5 pA/pF and -290 pA/pF and -244 pA/pF and -201 pA/pF and -219 pA/pF
Compound = O=C1CCC(N2C(=O)C=C(Nc3cccc(C4(NCCc5ccc(C(F)(F)F)c(Cl)c5)CCCC4)c3)C2=O)C(=O)N1 (stereo not drawn); target = Cereblon/Ikaros; assay = protein degradation, degrader, HiBiT luminescence; test system = Jurkat; endpoint = Dmax; result = 83%
Compound = CCS(=O)(=O)c1nc(C)cc(-c2ccccc2)n1; target = Importin subunit beta-1 (KPNB1, Homo sapiens, UniProt Q14974, C585A); assay = thermal shift; conditions = 30 µM, 2 h; endpoint = Tm1; result = 43.8 °C
Compound = O=c1nc(SCc2cc(F)cc(C(F)(F)F)c2)nc(SCc2ccc3sccc3c2)[nH]1; target = TOP2A; assay = ATPase activity; conditions = 3.9 µM, together with: ATP 0.025 mM; endpoint = ATP hydrolysis rate; result = 0.353 µM/min and 0.363 µM/min
Compound = Oc1c(Br)cc(Oc2ccc(Br)cc2Br)cc1Br; target = Sulfotransferase 1E1 (SULT1E1, Homo sapiens, UniProt P49888); assay = sulfonation, substrate; endpoint = apparent Vmax; result = 4.05 nmol/min/mg protein
Compound = Cc1c(COc2ccc(CN3CCCCC3C(=O)NCCCCCCC(=O)N(C)CCCC34CCC(c5ccccc53)c3ccccc34)cc2Br)cccc1-c1ccccc1 (stereo not drawn); target = Programmed cell death 1 ligand 1 (CD274, Homo sapiens, UniProt Q9NZQ7); assay = degrader, western blot; test system = HL-60; conditions = 1 µM; endpoint = degradation; result = 23.3 ± 3.3%
Compound = O=c1nc(SCc2cc(F)cc(C(F)(F)F)c2)nc(SCc2cccc(C(F)(F)F)c2)[nH]1; target = TOP2A; assay = decatenation; conditions = 125 µM; endpoint = mean decatenated DNA; result = 0%
Compound = O=C(COP(=O)(O)O)[C@@H](O)[C@H](O)[C@H](O)COP(=O)(O)O; target = NADH-ubiquinone oxidoreductase 75 kDa subunit, mitochondrial (Homo sapiens, UniProt P28331); assay = thermal proteome profiling, refers to: NDUFS1; test system = HepG2 cell lysate; conditions = concentration not given, 57 over 37 °C, mean; scale = relative to: compound over control; endpoint = thermal stability ratio; result = 0.517
Compound = CN1CCN(c2cc(-c3ccncc3)c(-c3ccc4ccccc4c3)nn2)CC1; target = fMet-Leu-Phe receptor (FPR1, Homo sapiens, UniProt P21462); assay = agonist, FLIPR; conditions = 12.5 µM; endpoint = activation; result = 0.9%
Compound = CC(C)(Oc1ccc(Cl)cc1)C(=O)O; target = Peroxisome proliferator-activated receptor gamma (PPARG, Homo sapiens, UniProt P37231); assay = reporter gene, agonist, β-lactamase reporter; test system = HEK293-H cells; conditions = 24 h, nominal concentration; scale = relative to: 10% of rosiglitazone maximum effect; endpoint = EC10; result = 11.3 µM
Compound = CCC(C)(NCCc1ccc(Cl)c(C(F)(F)F)c1)c1cccc(NC2=CC(=O)N(C3CCC(=O)NC3=O)C2=O)c1 (stereo not drawn); target = Cereblon/Ikaros; assay = protein degradation, degrader, HiBiT luminescence; test system = Jurkat; endpoint = Dmax; result = 79%
Compound = C[C@@H]1C[C@H](Nc2ccccc2)c2cc(F)ccc2N1C(=O)c1ccncc1; target = Ecdysone receptor (Aedes albopictus, UniProt Q9U3Y4); assay = ligand binding, inhibitor; test system = intact cells; conditions = together with: [3H]ponasterone A; scale = direction not given; endpoint = pIC50 Z-score; result = 0.68
Compound = CC(=O)Nc1ccc(O)cc1; target = Bromodomain-containing protein 4 (BRD4, Homo sapiens, UniProt O60885); assay = 19F NMR, refers to: tyrosine 118; conditions = 1470 µM; scale = relative to: free protein; endpoint = chemical shift change; result = -0.005 ppm
Compound = O=c1nc(SCc2ccc(C(F)(F)F)cc2)nc(SCc2ccc3sccc3c2)[nH]1; target = TOP2A; assay = decatenation; conditions = 125 µM; endpoint = mean decatenated DNA; result = 0.08%
Compound = O=c1c2nc(Br)n([C@@H]3O[C@@H]4COP(=O)(O)O[C@H]4[C@H]3O)c2nc2[nH]c(-c3ccccc3)cn12; target = anti-cGMP antibody; assay = antibody binding, competitive cGMP EIA; conditions = concentration not given, acetylated samples; scale = relative to: EC50 cGMP over EC50 cpd, higher = stronger binding; endpoint = relative binding affinity; result = 0.101
Compound = CCCCC[C@H](O)/C=C/[C@H]1[C@H](O)CC(=O)[C@@H]1C/C=C\CCCC(=O)O; target = Prostaglandin E2 receptor EP1 subtype (PTGER1, Homo sapiens, UniProt P34995, G92S); assay = IP1 accumulation, agonist; test system = AD293; conditions = 1 h, EP1 G92S mutant; endpoint = Emax; result = 108 ± 6.35%
Compound = CC(C)c1ccc(CSc2nc(SCc3ccc4sccc4c3)[nH]c(=O)n2)cc1; target = TOP2A; assay = decatenation; conditions = 15.6 µM, replicate 1; endpoint = decatenated DNA; result = 4.52%
Compound = NC(=O)C1CCN(C(=O)Cc2ccc(N(CCCO)Cc3cnc4nc(N)nc(N)c4n3)cc2)CC1; target = Pteridine reductase 1 (Leishmania major, UniProt Q01782); conditions = hDHFR weight 10; scale = relative to: LmPTR1, LmDHFR over hDHFR, 1.0 selective, 0.0 non-selective; endpoint = partition index; result = 0.96
Compound = c1ccc(C(NCc2cccnc2)(c2ccccc2)c2ccccc2)cc1; target = Potassium voltage-gated channel subfamily KQT member 1 (KCNQ1, Homo sapiens, UniProt P51787); assay = ion current, inhibitor, whole-cell patch clamp; test system = tsA201; conditions = current at end of depolarization, leak-subtracted; endpoint = Hill coefficient; result = 0.71
Compound = CCC1(O)CCCN(C(=O)c2ccc(-c3ccc(F)c(NC(=O)CCl)c3)cc2)C1 (stereo not drawn); target = DNA dC->dU-editing enzyme APOBEC-3A (Homo sapiens, UniProt P31941); assay = covalent adduct, intact protein MS; conditions = 3 h, 10-fold excess, 250 µM; endpoint = unmodified protein; result = 0%
Compound = CC[C@@H](C)[C@@H](NC(=O)[C@@H](Cc1ccc(O)cc1)NC(=O)[C@H]1CCCN1C(=O)[C@@H](CCCNC(=N)N)NC(=O)[C@H](N)Cc1c[nH]cn1)C(=O)N[C@H](C)C(=O)N[C@H](Cc1c[nH]cn1)C(=O)N[C@H](CCCNC(=N)N)C(=O)N[C@@H](C(=O)N[C@H](Cc1ccc(O)cc1)C(=O)N[C@H](CO)C(=O)N[C@H](Cc1ccccc1)C(N)=O)C(C)C; target = Programmed cell death 1 ligand 1, with PD-1 (Cd274, Mus musculus, UniProt Q9EP73); assay = PD-1-Fc binding; test system = HEK293T-mPD-L1; conditions = concentration not given, 48 h; endpoint = PD-L1 blocking rate; result = 8.62% and 12.7% and 8.58%
Compound = OC[C@H]1OC(O)[C@H](O)[C@@H](O)[C@@H]1O (stereo partly drawn); target = Hexokinase-3 (HK3, Homo sapiens, UniProt P52790, R807A); assay = substrate inhibitor; scale = relative to: wild type; endpoint = Ki fold increase; result = ≥ 70 fold
Compound = [Zn+2]; target = Otop1 (Mus musculus, UniProt Q80VM9); assay = acid-evoked current, inhibitor, whole-cell patch-clamp; test system = HEK293T; conditions = 0.001 mM, pH 5.5, unit not given; scale = relative to: current before compound; endpoint = remaining current; result = 0.903
Compound = NCCCCC(=O)O; target = Sodium- and chloride-dependent taurine transporter (SLC6A6, Homo sapiens, UniProt P31641, Y138A); assay = binding, microscale thermophoresis; conditions = 15.6 µM, room temperature, together with: 50 nM labelled protein; scale = higher = more binding; endpoint = normalised MST signal; result = -0.0202
